Results gathered from unrelated publications.
Parts stem from different laboratories: compare values within a part only.

Block 1 — technique: RNA Bind-n-Seq; molecule type: RNA; matrix: in vitro; tested at: 365 nM; baseline: no-protein control; direction: higher = stronger binding; quantity: RBNS enrichment (R)
Target: RNA binding protein fox-1 homolog 2, RRM domain, GST-SBP tag (RBFOX2, Homo sapiens, UniProt O43251-10, residues 100-194)
Notes: natural RNA segment, single round, ends assumed
Shared flanks, not repeated: GGGAGUUCUACAGUCCGACGAUC … UGGAAUUCUCGGGUGCCAA
Residues (chain): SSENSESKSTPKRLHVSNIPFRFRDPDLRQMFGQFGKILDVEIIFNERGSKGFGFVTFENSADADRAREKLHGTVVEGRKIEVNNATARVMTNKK
Strand = GUGCUGUCUUAUUUUUGCUGUCACAAUUUGUAAACUCAGUGUGACUUCUAUAUGAGUGUUUUAACCCUCAGCAUUCUGUGGUCAGGAAGAUAAAAGCAUCUGCAGGUCCC; value = 0.315
Strand = CAGAUUUUUUACAGCUGCCUGCAGUACUUUACCUCCUAUCAGAAGUUUCUCAGCUCCCAAGGCUCUGAGCAAAUGUGGCUCCUGGGGGUUCUUUCUUCCUCUGCUGAAGG; value = 0.287
Strand = CAAAACAGUGCUAAAAUCAAAGGUGUUUGCUGUGAAGAAAAACAUGUGUAUAUAUUGCACCUUGAGUUGUCAGAAGGUAGAAACUGAAAUAAACUAACUUUAAAAAAAAA; value = 0.658
Strand = AUACAGGGCCUGGUGGUCUGCUCCAUCUGGCCCCUGGCCCAUCUCUUCUGUGCCUUAGUCACAUAUGAAAGCCCCUCCCCAGUUCCCGUCUGCUCCAGGCACUCCUCGUU; value = 0.363
Strand = AACAUCAGGCCAGGACACCAUUUAUUUAACCAAGUAAUGGAGGAGAGUGAAACAUUUUCCAAGGCCUUAUUUCUUUUUCAGAAUGCUUUAAGUGUUGAUUAUAUGUGCUG; value = 0.284
Strand = GAUUUUGGAGAAAGCCCAAGGGUCCUUGAGGCCUAGCUGUGGCUGGAAGGGGCUUGGGCAGGGAGAAGCAUCAGUCUAUAGACGACGACGGUUCAGGGGGGGAGUAGGAA; value = 0.866

Block 2 — technique: protein binding microarray; molecule type: double-stranded DNA, one strand shown; matrix: in vitro; tested at: not given; baseline: not given; direction: higher = stronger binding; quantity: E-score
Target: Histone acetyltransferase KAT6A, winged helix 1, GST fusion (KAT6A, Homo sapiens, UniProt Q92794, residues 1-85)
Notes: 8-mer, flanks averaged, mean of 2 arrays, mostly near background
Target sequence (chain): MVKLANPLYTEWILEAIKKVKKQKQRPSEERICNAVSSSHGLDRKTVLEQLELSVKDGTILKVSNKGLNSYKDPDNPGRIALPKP
Strand = CTCTTGTC; value = -0.177
Strand = ATTTGCAC; value = -0.351
Strand = CCGCTCAG; value = 0.306
Strand = ATTACCCG; value = 0.256
Strand = ACCTAGGT; value = -0.238
Strand = CCTCTTGC; value = -0.0931

Block 3 — technique: universal PBM; molecule type: double-stranded DNA, one strand shown; matrix: in vitro; tested at: 600 nM; direction: higher = stronger binding; quantity: E-score
Target: Sal-like protein 4, full length isoform A (SALL4, Homo sapiens, UniProt Q9UJQ4, residues 1-1053)
UniProt Q9UJQ4, sequence (whole entry, looked up): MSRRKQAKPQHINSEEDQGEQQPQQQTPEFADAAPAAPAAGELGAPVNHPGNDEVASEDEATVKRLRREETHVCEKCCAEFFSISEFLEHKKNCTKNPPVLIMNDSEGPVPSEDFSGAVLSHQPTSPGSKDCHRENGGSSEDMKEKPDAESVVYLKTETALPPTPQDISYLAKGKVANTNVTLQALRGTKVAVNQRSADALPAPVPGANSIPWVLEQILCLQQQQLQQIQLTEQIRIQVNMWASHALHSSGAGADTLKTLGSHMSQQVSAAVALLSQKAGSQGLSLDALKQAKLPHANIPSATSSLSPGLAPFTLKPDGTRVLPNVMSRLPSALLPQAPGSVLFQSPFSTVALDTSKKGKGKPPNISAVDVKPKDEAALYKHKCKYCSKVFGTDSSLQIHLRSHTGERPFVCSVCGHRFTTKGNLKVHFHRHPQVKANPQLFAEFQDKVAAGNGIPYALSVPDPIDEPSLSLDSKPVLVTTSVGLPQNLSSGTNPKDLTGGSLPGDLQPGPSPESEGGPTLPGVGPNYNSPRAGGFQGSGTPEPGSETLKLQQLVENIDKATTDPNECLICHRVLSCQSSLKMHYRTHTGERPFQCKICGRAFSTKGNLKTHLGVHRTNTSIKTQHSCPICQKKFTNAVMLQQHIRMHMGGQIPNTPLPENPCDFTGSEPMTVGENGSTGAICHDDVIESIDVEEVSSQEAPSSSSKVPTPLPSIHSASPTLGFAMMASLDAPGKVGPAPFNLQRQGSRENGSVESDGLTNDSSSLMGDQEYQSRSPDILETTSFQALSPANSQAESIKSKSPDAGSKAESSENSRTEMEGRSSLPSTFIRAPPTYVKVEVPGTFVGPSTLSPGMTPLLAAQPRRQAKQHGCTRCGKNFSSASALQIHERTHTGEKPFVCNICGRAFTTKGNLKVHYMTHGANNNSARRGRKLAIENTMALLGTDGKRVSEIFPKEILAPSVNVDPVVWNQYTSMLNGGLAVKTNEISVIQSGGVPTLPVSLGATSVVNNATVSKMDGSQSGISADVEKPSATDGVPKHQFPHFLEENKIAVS
Notes: 8-mer, flanks averaged, mean of replicates
Strand = ACAATTGG; value = -0.0749
Strand = CGTTAAAG; value = 0.00101
Strand = TAGGTTAA; value = 0.214
Strand = AATACGAA; value = 0.319
Strand = ACACGGCT; value = -0.0899
Strand = CTCCGTAA; value = -0.0455

Further values, each from its own experiment
Substance = PhoQ, residues 284 288 289 292 302 303 SSTMSV; target = PhoP, residues 12 14 15 18 19 AGCRL (Escherichia coli, UniProt P23836); test = Sort-seq, refers to: YFP reporter; test system = E. coli; conditions = PhoQ-PhoP variant library, added: 10 µM Mg2+; how to read = baseline: high Mg2+ state, higher = stronger signaling; quantity = fold induction; value = 1.46

For quick reference, copied from above (block 1):
Strand = CAAAACAGUGCUAAAAUCAAAGGUGUUUGCUGUGAAGAAAAACAUGUGUAUAUAUUGCACCUUGAGUUGUCAGAAGGUAGAAACUGAAAUAAACUAACUUUAAAAAAAAA; value = 0.658
